Measured values of several laboratories.
Protocols differ between the studies behind these lines.
Chain of UniProt P09488 (whole entry, looked up): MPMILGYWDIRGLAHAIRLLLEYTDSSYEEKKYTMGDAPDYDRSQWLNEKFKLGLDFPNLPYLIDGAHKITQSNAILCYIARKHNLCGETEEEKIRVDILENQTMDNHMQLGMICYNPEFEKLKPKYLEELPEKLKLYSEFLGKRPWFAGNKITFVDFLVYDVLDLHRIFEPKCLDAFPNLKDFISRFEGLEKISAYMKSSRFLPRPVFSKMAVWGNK
Chain of UniProt Q16584 (whole entry, looked up): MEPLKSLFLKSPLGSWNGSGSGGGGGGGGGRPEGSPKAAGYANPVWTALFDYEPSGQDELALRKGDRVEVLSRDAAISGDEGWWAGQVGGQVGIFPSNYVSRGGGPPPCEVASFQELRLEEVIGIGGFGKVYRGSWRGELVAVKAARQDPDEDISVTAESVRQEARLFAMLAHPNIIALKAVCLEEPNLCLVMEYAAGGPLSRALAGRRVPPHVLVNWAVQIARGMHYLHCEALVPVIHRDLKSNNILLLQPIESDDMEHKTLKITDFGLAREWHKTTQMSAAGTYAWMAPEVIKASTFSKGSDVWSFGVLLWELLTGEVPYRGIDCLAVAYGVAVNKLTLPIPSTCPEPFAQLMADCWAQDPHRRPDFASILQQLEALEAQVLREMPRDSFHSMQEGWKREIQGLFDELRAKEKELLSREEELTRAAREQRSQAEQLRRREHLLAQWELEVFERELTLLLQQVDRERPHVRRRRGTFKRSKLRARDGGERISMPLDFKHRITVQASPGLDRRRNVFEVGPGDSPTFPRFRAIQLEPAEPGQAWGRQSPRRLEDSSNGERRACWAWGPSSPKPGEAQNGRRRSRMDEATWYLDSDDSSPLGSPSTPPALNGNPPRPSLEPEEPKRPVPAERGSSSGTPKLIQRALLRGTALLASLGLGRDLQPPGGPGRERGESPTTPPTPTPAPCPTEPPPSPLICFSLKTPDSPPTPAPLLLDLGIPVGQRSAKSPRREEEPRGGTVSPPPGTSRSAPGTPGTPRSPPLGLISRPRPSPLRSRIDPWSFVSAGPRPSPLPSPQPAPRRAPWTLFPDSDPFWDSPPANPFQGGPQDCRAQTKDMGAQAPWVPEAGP
Chain of UniProt O95983 (whole entry, looked up): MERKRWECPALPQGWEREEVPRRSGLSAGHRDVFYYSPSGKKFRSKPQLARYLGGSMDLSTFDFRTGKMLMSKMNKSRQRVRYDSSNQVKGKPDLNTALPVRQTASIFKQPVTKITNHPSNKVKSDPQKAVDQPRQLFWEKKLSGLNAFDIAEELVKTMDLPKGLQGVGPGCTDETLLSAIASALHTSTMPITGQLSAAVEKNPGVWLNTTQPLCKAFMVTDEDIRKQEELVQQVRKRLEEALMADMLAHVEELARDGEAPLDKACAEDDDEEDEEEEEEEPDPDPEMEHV
Chain of UniProt P35813 (whole entry, looked up): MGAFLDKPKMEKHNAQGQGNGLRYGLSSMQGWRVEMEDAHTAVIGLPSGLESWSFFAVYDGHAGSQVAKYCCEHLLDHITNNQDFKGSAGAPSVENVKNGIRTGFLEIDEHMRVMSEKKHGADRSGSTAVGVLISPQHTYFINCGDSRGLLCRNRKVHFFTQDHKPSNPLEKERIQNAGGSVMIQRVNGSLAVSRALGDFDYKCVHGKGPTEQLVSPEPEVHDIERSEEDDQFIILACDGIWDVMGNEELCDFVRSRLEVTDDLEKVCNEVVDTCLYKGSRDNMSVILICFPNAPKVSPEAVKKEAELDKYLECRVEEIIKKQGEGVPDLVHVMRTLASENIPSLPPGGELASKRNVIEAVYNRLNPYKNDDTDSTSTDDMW

| Structure (SMILES) | target or system | test | test system | conditions | how to read | quantity | value |
| --- | --- | --- | --- | --- | --- | --- | --- |
| C=C1C[C@@H]2[C@H](CC[C@]3(C)C(=O)CC[C@@H]23)[C@@]2(C)C=CC(=O)C=C12 | GSTM1 (Homo sapiens, UniProt P09488) | substrate, recombinant enzyme |  | 250 µM, 1 h, 37 °C, enzyme 2.5 ng/µL, active if above 3-fold of mock, together with: glutathione 5 mM |  | glutathione conjugation | active |
| CCN(CC)C(=O)[C@@H]1C=C2c3cccc4[nH]cc(c34)C[C@H]2N(C)C1 |  | refers to: fear of death | healthy volunteers | dose not given, 0 to 12 h | relative to: placebo, direction not given | List of Complaints score | 0 |
| CN1CC[C@@H](c2c(O)cc(O)c3c(=O)cc(-c4ccc(C(F)(F)F)cc4Cl)oc23)[C@@H]1CO |  | refers to: Sepsis | B-cell malignancies or AML | oral, 100 mg, continuous dosing |  | patients with adverse event | 12.5% |
| COc1cc(Nc2ncc(F)c(Nc3ccc4c(n3)NC(=O)C(C)(C)O4)n2)cc(OC)c1OC | PPM1A (Homo sapiens, UniProt P35813) | phosphatase activity, inhibitor |  |  |  | IC50 | > 10 µM |
| COc1cccc(-c2n[nH]c(SCc3ccccn3)n2)c1OC | Salmonella typhimurium | Ames test, plate incorporation | TA98 | 2.0 mg/plate, without S9 |  | revertant colonies per plate | 18 |
| CC[C@H](C)[C@H](NC(=O)[C@H](CC(C)C)NC(=O)[C@H](CCCNC(=N)N)NC(=O)[C@H](CCCNC(=N)N)NC(=O)[C@H](CCCNC(=N)N)NC(=O)[C@H](CCCNC(=N)N)NC(=O)[C@H](CC(C)C)NC(=O)[C@@H](NC(=O)[C@@H](NC(=O)[C@@H](NC(=O)[C@H](CCCNC(=N)N)NC(=O)[C@H](CCCNC(=N)N)NC(=O)[C@H](CCCNC(=N)N)NC(=O)[C@@H](N)CCCNC(=N)N)C(C)C)[C@@H](C)CC)[C@@H](C)CC)C(=O)N[C@@H](CO)C(=O)N[C@@H](Cc1ccccc1)C(=O)N[C@@H](CO)C(=O)N[C@@H](C)C(=O)N[C@@H](Cc1ccc(O)cc1)C(N)=O | human erythrocytes |  |  | 400 µM, 1 h | relative to: Triton X-100 | hemolysis | 40% |
| Cc1cc(C(=O)NC(C)(C)COc2cccc3c2C(N)=NS(=O)(=O)N3)cc(C)n1 | Salmonella typhimurium | Ames test, initial | TA1537 | 5.00 µg/plate, together with: rat liver S9 | relative to: solvent control | revertant ratio | 0.8 |
| COc1ccc(N2C(=O)N(c3c(C)cccc3Cl)Cc3cnc(Nc4ccc(C5CCN(C)CC5)cc4OC)nc32)nc1 | MAP3K11 (Homo sapiens, UniProt Q16584) | kinase activity, inhibitor |  | 0.5 µM, MLK3 |  | inhibition | 2.31% |
| CCC1(c2ccccc2)C(=O)NC(=O)NC1=O | primary human hepatocytes | inducer |  | 1000 µM, unit not given | relative to: vehicle | CYP2B6 mRNA induction | 5.48 |
| CO[C@H]1C[C@@H]2CC[C@@H](C)[C@@](O)(O2)C(=O)C(=O)N2CCCC[C@H]2C(=O)O[C@H]([C@H](C)C[C@@H]2CC[C@@H](OC(=O)NCCOCCOCCOCCOCCOCCOCCOCCOCCC(=O)N3CCc4cc(Cn5nc(-c6ccc7oc(N)nc7c6)c6c(N)ncnc65)ccc4C3)[C@H](OC)C2)C[C@@H](O)[C@H](C)/C=C(\C)[C@@H](O)[C@@H](OC)C(=O)[C@H](C)C[C@H](C)/C=C/C=C/C=C/1C |  |  | patients with advanced solid tumours | intravenous, 10 mg weekly, grade 3 or higher |  | decreased appetite incidence | 0% |
| O=c1ccc2ccccc2o1 | NHEK | mitochondrial reserve capacity, Seahorse |  | concentration not given, 24 h |  | chance response | 55.3% |
| CC(=O)N1CCC(C(=O)N2CCN3C(=O)c4cc(-c5ccccc5)ccc4NC(=O)C3C2)CC1 (stereo not shown) | Salmonella typhimurium |  | TA98 | 5000 µg/plate |  | revertants per plate | 30.5 |
| COc1cc2c(Oc3ccc4[nH]c(C)cc4c3F)ccnc2cc1OCC1(N)CC1 |  |  | paediatric recurrent refractory sarcoma | concentration not given, whole group |  | grade 1 or 2 Headache | 20.6% |
| CC[C@H](C)[C@H](NC(=O)[C@H](Cc1ccccc1)NC(=O)[C@H](CCC(=O)O)NC(=O)[C@H](CCCNC(=N)N)NC(=O)[C@H](C)NC(=O)[C@H](C)NC(=O)[C@H](CCC(N)=O)NC(=O)[C@H](CCC(=O)O)NC(=O)[C@H](CCC(=O)O)NC(=O)[C@H](CC(C)C)NC(=O)[C@H](Cc1ccc(O)cc1)NC(=O)[C@H](CO)NC(=O)[C@H](CO)NC(=O)[C@@H](NC(=O)[C@H](CC(=O)O)NC(=O)[C@H](CO)NC(=O)[C@@H](NC(=O)[C@H](Cc1ccccc1)NC(=O)[C@@H](NC(=O)CNC(=O)[C@H](CCC(=O)O)NC(=O)[C@H](C)NC(=O)CCc1c[nH]cn1)[C@@H](C)O)[C@@H](C)O)C(C)C)C(=O)N[C@@H](C)C(=O)N[C@@H](Cc1c[nH]c2ccccc12)C(=O)N[C@@H](CC(C)C)C(=O)N[C@H](C(=O)N[C@@H](CCCNC(=N)N)C(=O)NCC(=O)N[C@@H](CCCNC(=N)N)C(=O)N[C@@H](CCCCNC(=O)COCCOCCNC(=O)COCCOCCNC(=O)CC[C@H](NC(=O)CCCCCCCCCCCCCCCCC(=O)O)C(=O)O)C(=O)NCC(=O)NCC(=O)N[C@@H](CO)C(=O)N[C@@H](CCCCNc1c(NCCCCCN(O)C(=O)CCC(=O)NCCCCCN(O)C(=O)CCC(=O)NCCCCCN(O)C(C)=O)c(=O)c1=O)C(=O)O)C(C)C [zirconium-89 labelled] |  |  | rat, blood | sc, 3 nmol/kg, 168 h, ex vivo |  | tissue uptake | 0.02 %ID/g |
| CC[C@H](C)[C@@H]1NC(=O)[C@@H]2CCCN2C(=O)[C@H](CC(C)C)NC(=O)[C@H](CC(C)C)NC(=O)CNC(=O)[C@@H](NC(=O)[C@@H](NC(=O)[C@H](CC(=O)O)NC(=O)CNC(=O)[C@@H](NC(=O)[C@H](C)NC(=O)CNC(=O)[C@H](CCCCN)NC(=O)[C@H](CC(C)C)NC(=O)[C@H](CC(C)C)NC(=O)[C@H](CCCCN)NC(=O)CNC(=O)[C@@H](NC(=O)[C@@H](N)CC(C)C)C(C)C)C(C)C)C(C)C)CSSC[C@@H](C(=O)O)NC1=O |  | RNA-seq, refers to: Cebpe mRNA | mouse traumatic brain injury, frontal cortex and hippocampus | dose not given | relative to: TBI plus compound vs TBI | log2 fold change | -4.7 |
| C[C@H]1CN(c2n[nH]c3nc(N[C@H]4CC[C@H](NS(=O)(=O)CCC(F)(F)F)CC4)ncc23)CCO1 | Methyl-CpG-binding domain protein 3 (MBD3, Homo sapiens, UniProt O95983) | Kinobeads competition, refers to: MBD3 |  | 0.16 µM, unit not given | relative to: vehicle | remaining binding | 1.08 |

A few entries again:
| Structure (SMILES) | target or system | test | test system | conditions | how to read | quantity | value |
| --- | --- | --- | --- | --- | --- | --- | --- |
| CC[C@H](C)[C@H](NC(=O)[C@H](Cc1ccccc1)NC(=O)[C@H](CCC(=O)O)NC(=O)[C@H](CCCNC(=N)N)NC(=O)[C@H](C)NC(=O)[C@H](C)NC(=O)[C@H](CCC(N)=O)NC(=O)[C@H](CCC(=O)O)NC(=O)[C@H](CCC(=O)O)NC(=O)[C@H](CC(C)C)NC(=O)[C@H](Cc1ccc(O)cc1)NC(=O)[C@H](CO)NC(=O)[C@H](CO)NC(=O)[C@@H](NC(=O)[C@H](CC(=O)O)NC(=O)[C@H](CO)NC(=O)[C@@H](NC(=O)[C@H](Cc1ccccc1)NC(=O)[C@@H](NC(=O)CNC(=O)[C@H](CCC(=O)O)NC(=O)[C@H](C)NC(=O)CCc1c[nH]cn1)[C@@H](C)O)[C@@H](C)O)C(C)C)C(=O)N[C@@H](C)C(=O)N[C@@H](Cc1c[nH]c2ccccc12)C(=O)N[C@@H](CC(C)C)C(=O)N[C@H](C(=O)N[C@@H](CCCNC(=N)N)C(=O)NCC(=O)N[C@@H](CCCNC(=N)N)C(=O)N[C@@H](CCCCNC(=O)COCCOCCNC(=O)COCCOCCNC(=O)CC[C@H](NC(=O)CCCCCCCCCCCCCCCCC(=O)O)C(=O)O)C(=O)NCC(=O)NCC(=O)N[C@@H](CO)C(=O)N[C@@H](CCCCNc1c(NCCCCCN(O)C(=O)CCC(=O)NCCCCCN(O)C(=O)CCC(=O)NCCCCCN(O)C(C)=O)c(=O)c1=O)C(=O)O)C(C)C [zirconium-89 labelled] |  |  | rat, blood | sc, 3 nmol/kg, 168 h, ex vivo |  | tissue uptake | 0.02 %ID/g |
| C=C1C[C@@H]2[C@H](CC[C@]3(C)C(=O)CC[C@@H]23)[C@@]2(C)C=CC(=O)C=C12 | GSTM1 (Homo sapiens, UniProt P09488) | substrate, recombinant enzyme |  | 250 µM, 1 h, 37 °C, enzyme 2.5 ng/µL, active if above 3-fold of mock, together with: glutathione 5 mM |  | glutathione conjugation | active |
